Experimental data gathered from unrelated publications.
± marks the error that the study gave.

SMILES	test system	setting	how to read	quantity	value
CSCC[C@H](NC(=O)[C@H](CO)NC(=O)[C@@H](N)CO)C(=O)N[C@@H](CCCCN)C(=O)N[C@@H](CC(C)C)C(=O)N[C@@H](CO)C(=O)N[C@@H](Cc1ccccc1)C(=O)N[C@@H](CCCNC(=N)N)C(=O)N[C@@H](C)C(=O)N[C@@H](CCCNC(=N)N)C(=O)N[C@@H](C)C(=O)N[C@@H](Cc1ccc(O)cc1)C(=O)NCC(=O)N[C@@H](Cc1ccccc1)C(=O)N[C@@H](CCCNC(=N)N)C(=O)NCC(=O)N1CCC[C@H]1C(=O)NCC(=O)N1CCC[C@H]1C(=O)N[C@@H](CCC(N)=O)C(=O)N[C@@H](CC(C)C)C(=O)O	C57BL/6 mouse, fed, plasma			plasma half-life	~402 min
Nc1c(S(=O)(=O)O)cc(Nc2cccc(S(N)(=O)=O)c2)c2c1C(=O)c1ccccc1C2=O	C57BL/6J mouse, male	intravenous, 5.0 mg/kg		plasma half-life	~60 min
CCC1CC2C(C)=CC3C(=O)CCCC3C=CC(C)=CC2C(=O)O1 (centres unmarked)	ICR mouse (male), plasma	oral, 30 mg/kg, 5 min		plasma concentration	19 ± 10.7 ng/mL
Cn1cnnc1Sc1c2c(c(C#N)c3nc4ccccc4n13)CCCC2	C57BL/6 mouse, plasma	intravenous, 0.3 µg/g, 60 min		plasma concentration	0.1 ng/mL
CCN(C(=O)c1cc(F)ccc1Oc1nncnc1N1CCC2(C1)CN([C@H](CCCN(C)CCOC)C(C)C)C2)C(C)C	mouse	oral, oxalate salt		plasma half-life	~540 min
C=CC(=O)Nc1cccc(-c2cnc3[nH]cc(C(=O)NC(C)(C)C)c3n2)c1	mouse NOD/SCID female, plasma	50 mg/kg	relative to: ip over oral	plasma exposure ratio	10 fold
Cc1nc(NC(=O)N2CCC[C@H]2C(N)=O)sc1-c1csc(C(C)(C)C)n1	mouse SK-OV-3 xenograft, plasma	intraperitoneal, 100 mg/kg single, 6 h		plasma concentration	9.1 ± 1.1 µM
CCCCCCCCCCCCCCCC(=O)N[C@@H](CCC(=O)NCCCC[C@H](NC(=O)[C@H](CC(=O)O)NC(=O)[C@H](CO)NC(=O)[C@@H](NC(=O)[C@H](Cc1ccccc1)NC(=O)[C@@H](NC(=O)CNC(=O)[C@H](CCC(N)=O)NC(=O)[C@H](CO)NC(=O)[C@@H](N)Cc1c[nH]cn1)[C@@H](C)O)[C@@H](C)O)C(=O)N[C@@H](CO)C(=O)N[C@@H](CCC(=O)O)C(=O)N[C@@H](Cc1ccc(O)cc1)C(=O)N[C@@H](CC(C)C)C(=O)N[C@@H](CC(=O)O)C(=O)N[C@@H](CO)C(=O)N[C@@H](CCC(=O)O)C(=O)N[C@@H](CCCNC(=N)N)C(=O)N[C@@H](C)C(=O)N[C@@H](CCCNC(=N)N)C(=O)N[C@@H](CC(=O)O)C(=O)N[C@@H](Cc1ccccc1)C(=O)N[C@H](C(=O)N[C@@H](C)C(=O)N[C@@H](Cc1c[nH]c2ccccc12)C(=O)N[C@@H](CC(C)C)C(=O)N[C@@H](CCC(=O)O)C(=O)N[C@@H](C)C(=O)NCC(=O)NCC(=O)O)C(C)C)C(=O)O	diet-induced obese mouse, plasma	subcutaneous, dose not given		plasma exposure over EC50	> 10 fold

Repeated from above:
SMILES	test system	setting	how to read	quantity	value
C=CC(=O)Nc1cccc(-c2cnc3[nH]cc(C(=O)NC(C)(C)C)c3n2)c1	mouse NOD/SCID female, plasma	50 mg/kg	relative to: ip over oral	plasma exposure ratio	10 fold
